Results collected from several papers.
Every numbered part comes from another study and shows a few of its results, in no order.

Set 1
Target: Prothrombin, mature alpha-thrombin (F2, Homo sapiens, UniProt P00734)
Method: aptamer microarray, sandwich
Molecule type: DNA with 2'F-ANA
Medium: in vitro
Concentration: 200 nM
Notes: whole 15-mer aptamer, many near background
With: Cy3 exosite-II aptamer, 400 nM
Direction: higher = stronger binding
Sequence: GGTTGGTGTGGTTGG
Modification	mean fluorescence intensity
2'F-ANA at 1 3 6 10 12 13 14 15	60.5 a.u.
2'F-ANA at 1 2 4 6 7 8 10 13 14 15	47.8 a.u.
2'F-ANA at 1 4 5 8 9 11 12 15	85.6 a.u.
2'F-ANA at 4 5 6 10 11 12	52.1 a.u.
2'F-ANA at 2 3 5 11 12	212 a.u.
2'F-ANA at 5 8 9 11 12	160 a.u.
2'F-ANA at 2 4 6 7 10 11 14 15	57.1 a.u.
2'F-ANA at 1 6 7 8 10 13 15	52.5 a.u.
2'F-ANA at 5 6 7 13 14 15	120 a.u.
2'F-ANA at 3 4 7 9 13 15	498 a.u.
2'F-ANA at 7 8 10 11 12	241 a.u.
2'F-ANA at 1 4 11 13	102 a.u.
2'F-ANA at 2 3 4 5 7 10 12 13 14 15	49.4 a.u.
2'F-ANA at 8 11 13 14	209 a.u.
2'F-ANA at 4 6 10 14	56.4 a.u.
2'F-ANA at 2 3 4 8 11	702 a.u.
2'F-ANA at 2 3 4 6 7 9 10 11 12 14 15	151 a.u.
2'F-ANA at 3 4 5 8 9 10	54.1 a.u.
2'F-ANA at 1 5 6 7 8 9 12 14	50.2 a.u.
2'F-ANA at 1 2 6 10 11 14	57.9 a.u.
2'F-ANA at 2 6 9 10 12 13 14 15	86.5 a.u.
2'F-ANA at 1 3 8 9 10 13	68.3 a.u.

Set 2
Target: RNA binding protein fox-1 homolog 2, RRM domain, GST-SBP tag (RBFOX2, Homo sapiens, UniProt O43251-10, residues 100-194)
Method: RNA Bind-n-Seq
Molecule type: RNA
Medium: in vitro
Concentration: 365 nM
Notes: natural RNA segment, single round, ends assumed
Relative to: no-protein control
Direction: higher = stronger binding
Construct (chain): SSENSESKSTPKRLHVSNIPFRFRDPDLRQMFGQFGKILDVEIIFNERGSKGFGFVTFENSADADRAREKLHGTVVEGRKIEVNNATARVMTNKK
Sequence	RBNS enrichment (R)
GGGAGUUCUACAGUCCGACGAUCUGAUUUCUUUAAUUUGUCCUUUUUUUCUUUGGUCUAAAACAUUAUUAAAUUUUUGUAAAUAUUUUGAUUUAAUGUGUCUUAGAUCCUCAUUAUUUUAAUACAGGAAAAGAUGGAAUUCUCGGGUGCCAA	1.09
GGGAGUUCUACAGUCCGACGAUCCUGCCCUGCUGUCCUCUGUAUCACACAAGACGUCUCGCUUGCUGUGUCGUGGUUUAGCUCCUCGGUGGUGAGGCGUGCUUCUCCCUCCUGGUGGAGCCAGGCAGCAGGGCUGGAAUUCUCGGGUGCCAA	0.857
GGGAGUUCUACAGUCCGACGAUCCUGCCUGGCAGGGACGCCAGUACUACUGUAACUGCAGCAGGAGCUGCCCGGCCUGCCUUCUGGCCCCACGCCCACAGGCGUAGUCACAUCUUUGUACUGUACUCCCCUGUUGGAAUUCUCGGGUGCCAA	0.153
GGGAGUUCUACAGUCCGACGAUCUGGAGCACAUCAUGGCCACCAACCGGCUGGAUGAGGCGGAGCUGGGUCGCCUGCUACCCGACUGAUGUCCGUUGAGGGCUGCAGUCAGAGGCCCUGGACAGAAGCUCCAGUGGAAUUCUCGGGUGCCAA	0.34
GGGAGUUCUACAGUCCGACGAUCAAACAUGUUAAAAAAAAAAAUUAUAAGACAUGGACUAGUCCUCAUUAGCAUGUUUGCAUAGCAACCAGUCAAGAGCAUUUACACUAUUUCUGCUGAUAUACUCACCUUAGUGGAAUUCUCGGGUGCCAA	2.63
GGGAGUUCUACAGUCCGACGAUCUGCUGACCUUGUGUGACCAGAGAUUUAAAGAUGAAAAAAACAAUAAAUGUGUUUACUUCUGCACCACUCUCAGAUGGAUAUGUUUUUGGCAGCGUGGUCCUCAGCUCCUGUGGAAUUCUCGGGUGCCAA	0.964
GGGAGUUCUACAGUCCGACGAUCACCCCAGUUCUAGGGGGCAGAAACAGGACAUUUACAUCUAGUAGGGGCUGCAAGAGCAAAGAGGAAUAUCGUCUAAAGAUUUCUCUAUAUAUUUAAAACCCACAACUAAAUGGAAUUCUCGGGUGCCAA	0.43
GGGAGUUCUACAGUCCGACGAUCCAUUUGUAGAAGCAGCCAUCUUCCCCCUGGUGGGGCUUUGGGGUCUAUGUUAGCCAUUUGUAUCUACUUUAGCUCUCAAGUCCAGAUGAGAAUAGGGACCGUGGGGUAUGUGGAAUUCUCGGGUGCCAA	0.463

Set 3
Target: Fragile X messenger ribonucleoprotein 1, C-terminal low-complexity region (Fmr1, Mus musculus, UniProt P35922)
Method: RNA Bind-n-Seq
Molecule type: RNA
Medium: in vitro
Concentration: 200 nM
Notes: whole 134-nt RNA, ends assumed
With: 150 mM LiCl
Relative to: input library
Direction: higher = stronger binding
Library: 7-deaza-guanosine replaces G
Sequence	log2 enrichment
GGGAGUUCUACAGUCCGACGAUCCACAGACAACACGCACCCACACAGACACAGAGGGAAGGGGUUGGGAUGGGGACAGGGUGCACAGCAGGGCGGGGUAGGCCCCCAGCCCCUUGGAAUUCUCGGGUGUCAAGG	1.06
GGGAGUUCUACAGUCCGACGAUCUUAUUGAACUGACAAGGUCCUCCCUGUGUUGUAGCAAGGACCAGACUGGCUUGAGCUCUCUGAGAUGACCGAGCAGCCAGACUAUGACCUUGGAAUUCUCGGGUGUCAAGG	-0.0361
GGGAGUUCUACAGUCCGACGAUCGCAGGAAGUAAAAACAAAUGGAAAUGCUUCGGAUAGUGGCAGGGGUGGGGGUUACUAAGGAAAGGGUGGGAUGGGAGUGGGUAAAGAGUUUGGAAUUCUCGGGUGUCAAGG	1.47
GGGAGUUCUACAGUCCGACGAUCGUCCUGUGCUACACAUCGUAUGUACCGAAUCGGGUUUUUUUGGGAGGGAAAAAAAGGGAAAGUAUUAUGUUACGCCGUUCGGAUCUGCACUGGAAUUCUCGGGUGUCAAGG	-1.57
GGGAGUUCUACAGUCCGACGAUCACCAUGCAGGUGGGCAUCUUUGGGAAGUGGGGCAAGGGGGGGAUAGGGAGGGGGGUAACACUUUGGGAACAGGUGGUCCCAGGUUGUUUCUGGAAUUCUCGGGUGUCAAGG	0.742
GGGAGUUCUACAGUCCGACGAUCACCAUGCAGGUGGGCAAAUUUGGGAAGUGGGGCAAGGGGGGGAUAGGGAGGGGGGUAACACUUUGGGAACAGGUGGUCCCAGGUCGUUUCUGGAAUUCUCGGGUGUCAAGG	1.51
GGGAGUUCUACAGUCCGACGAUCUCUUGUAUGACUUAACCCCUGUUUCUAAUACAGGGGCCGCUCUCCUCAGCCUCCUGCUGAAGAGGAUGAAGAUGACUUUGAUGAUACCCUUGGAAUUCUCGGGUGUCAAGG	-0.587
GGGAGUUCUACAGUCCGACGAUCAAAUGGUAGUGUGCGGAGUUUUUUUUUCUUCCUUCUUUUAAAAAUGGUUGUUUAAGACUUUAACAAUGGGAACCCCUUGUGAGCAUGCUCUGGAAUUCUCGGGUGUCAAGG	-1.84

Set 4
Target: Sal-like protein 4, full length isoform B (SALL4, Homo sapiens, UniProt Q9UJQ4-2, residues 1-616)
Method: universal PBM
Molecule type: double-stranded DNA, one strand shown
Medium: in vitro
Concentration: not given
Notes: 8-mer, flanks averaged, mean of replicates
Direction: higher = stronger binding
Sequence	E-score
ATGTGCTA	0.169
AATCAAGT	0.091
ATACGCGC	-0.0673
CTCGAGTA	0.00754
ACCGGATC	-0.225
AACGTCTA	0.149
GTTGGTTA	0.0756
CTCGTCGA	-0.0718
GCTTTACC	0.00977
TAAACCAA	0.236
GAATGGAC	-0.0209
CAACGTTC	0.00982
GTAAAGGA	0.108
ACTTATAA	0.354
CATTCAAC	0.156
AGACACTA	0.128
AGGCACGC	-0.387
ACCAACAT	0.179
CCTGAGAA	0.0223
AAATCGAA	0.105
ACAGGCCT	-0.0948
TCTCGAAA	0.00227
CAACGGCA	-0.136
CACCAAGA	-0.112
CACAGCGA	-0.059

Some of these lines once more (set 1):
Modification	mean fluorescence intensity
2'F-ANA at 1 5 6 7 8 9 12 14	50.2 a.u.
2'F-ANA at 5 6 7 13 14 15	120 a.u.
2'F-ANA at 1 2 4 6 7 8 10 13 14 15	47.8 a.u.
2'F-ANA at 1 2 6 10 11 14	57.9 a.u.
2'F-ANA at 1 4 11 13	102 a.u.
2'F-ANA at 7 8 10 11 12	241 a.u.
2'F-ANA at 1 3 8 9 10 13	68.3 a.u.
